Measured values pooled from the literature.
Numbered parts are unrelated; each lists some results of a single study. Substitutions count along the parent as printed.

Set 1
Target: CCNA2, cyclin fold, Cln2 fusion (human)
Method: yeast growth competition, sequencing
Medium: yeast
Notes: strong parent motif
Relative to: not given
Direction: higher = stronger binding
Starting sequence: RB1 docking peptide (human); PKPLKKLRFDIEG
`PKPLKMLRFDIEG [K6M]`: “normalised enrichment score” 0.798.
Under “normalised enrichment score”, `PKPLKKMRFDIEG [L7M]` is recorded as 0.801.
`PKPQKKLRFDIEG [L4Q]`: “normalised enrichment score” 1.42.
For `PKPFKKLRFDIEG [L4F]`, “normalised enrichment score” read 2.1.
For `PKPLKKLRFKIEG [D10K]`, “normalised enrichment score” read 1.62.
`PKPLMKLRFDIEG [K5M]`: “normalised enrichment score” 0.365.
`PKPLKKLRFDIHG [E12H]` — result for “normalised enrichment score”: 0.769.
`PKPLKKLRFDIWG [E12W]` — result for “normalised enrichment score”: 2.62.
`PKPNKKLRFDIEG [L4N]`: “normalised enrichment score” 1.84.
Under “normalised enrichment score”, `PKPLNKLRFDIEG [K5N]` is recorded as 0.636.
Under “normalised enrichment score”, `PKPLKKLRRDIEG [F9R]` is recorded as 0.228.
`PKPLKDLRFDIEG [K6D]`: “normalised enrichment score” 0.246.
`PKPLKKLRFDIEV [G13V]` — result for “normalised enrichment score”: 1.04.
`PKHLKKLRFDIEG [P3H]` — result for “normalised enrichment score”: 0.33.
`PYPLKKLRFDIEG [K2Y]`: “normalised enrichment score” 1.03.
Under “normalised enrichment score”, `PKPLKKLRFDIMG [E12M]` is recorded as 1.39.

Set 2
Target: Histone acetyltransferase KAT6A, winged helix 2, GST fusion (KAT6A, Homo sapiens, UniProt Q92794, residues 85-181)
Method: protein binding microarray
Molecule type: double-stranded DNA, one strand shown
Medium: in vitro
Concentration: not given
Notes: 8-mer, flanks averaged, mean of 2 arrays, mostly near background
Relative to: not given
Direction: higher = stronger binding
Construct (chain): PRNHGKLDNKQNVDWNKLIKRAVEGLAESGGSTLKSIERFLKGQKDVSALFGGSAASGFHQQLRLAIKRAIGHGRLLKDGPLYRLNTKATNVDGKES
The E-score of `GCACGGGA` is reported as -0.0687.
For `CATTGGAG`, the E-score was -0.072.
The E-score of `CGAGCGCA` is reported as 0.161.
With `ATTACTGC` the E-score was 0.161.
For `AAACATCC`, the E-score was 0.0113.
`ACAATGTG` gave an E-score of -0.208.
`GGTCTAGA` gave an E-score of -0.234.
With `TGGCTAAA` the E-score was 0.0223.
The E-score of `ACCCATGA` is reported as -0.279.
`ACGAGCGA` has an E-score of 0.0292.
For `GCCTCCAC`, the E-score was 0.0657.
`ATTTCGGG` has an E-score of -0.00421.
`AGCGTTTG` has an E-score of -0.0589.
The E-score of `GAGAGGCC` is reported as 0.109.
For `AAGGTAGG`, the E-score was -0.0378.
With `CTCTCTTA` the E-score was -0.0715.
`CGGACCAC` has an E-score of 0.162.
`AAATAGGA` gave an E-score of -0.115.
`TAATCTAA` gave an E-score of 0.0735.
The E-score of `AAAGATTT` is reported as 0.0859.
For `CCCGCCGC`, the E-score was 0.28.
The E-score of `AGGCTAGG` is reported as -0.171.
The E-score of `GAAATGCC` is reported as -0.0018.
The E-score of `CGTTCATA` is reported as -0.154.
The E-score of `ACCATAGT` is reported as -0.0641.

Set 3
Target: Interferon regulatory factor 5, full length, phosphomimetic (IRF5, Homo sapiens, UniProt Q13568-2, residues 1-514, K96S/S451D/S453D/S456D/S462D)
Method: protein-binding microarray
Molecule type: double-stranded DNA, one strand shown
Medium: in vitro
Concentration: 250 nM
Notes: 60-bp whole probe
With: salmon DNA 0.4 mg/ml
Relative to: random background probes
Direction: higher = stronger binding
Constant ends, left off below: GCCTAGCAC … GTCTTGATTCGCTTGACGCTGCTG
For `GACGGTATCGGTTTCGGGACGTGCTAG`, the log fluorescence was 8.28 z-score.
The log fluorescence of `AACCTTATTAAGATTGTGCAAGTGCTA` is reported as 0.16 z-score.
With `TTAGGACTGGGTTACGGTTAGTGCTAG` the log fluorescence was -0.105 z-score.
`GACGAACTGAGTCTCGAGCCGTGCTAG` has a log fluorescence of -0.254 z-score.
`GACGGTATCCATATCCTGACGTGCTAG` has a log fluorescence of 0.101 z-score.
The log fluorescence of `GACTGTTTGGTCCTGATCCTGTGCTAG` is reported as -0.347 z-score.
`GACGGTTTCGGTTTCGGGAAGTGCTAG` has a log fluorescence of 11 z-score.
`TTAGGTCTCCTTCTCCTTTTGTGCTAG` has a log fluorescence of -0.0195 z-score.
The log fluorescence of `TTAGGTTTCGGGTTTCGGTGAGTGCTA` is reported as 9.56 z-score.
`TCATCTTTCTACATAGAACTGTGCTAG` has a log fluorescence of 2.17 z-score.
For `TCATACTTCTCTTTTTGACTGTGCTAG`, the log fluorescence was 0.833 z-score.
`GACGATCTCGGTTTCGAGACGTGCTAG` gave a log fluorescence of 2.54 z-score.
`TTAGTTATCAGTCTCGATTAGTGCTAG` has a log fluorescence of 2.28 z-score.
`GACGATTTGAGACTGGAGACGTGCTAG` gave a log fluorescence of -0.178 z-score.
The log fluorescence of `TCACCCTTTGCTTTCCTACTGTGCTAG` is reported as 0.716 z-score.
For `GACGATATCGGTTTTCGAGACGTGCTA`, the log fluorescence was 5.57 z-score.
`TCAGAAATTCCTCTGAAACTGTGCTAG` gave a log fluorescence of 0.405 z-score.
With `GACTTTCTTTCAAATGAAGGAGTGCTA` the log fluorescence was 4.07 z-score.
For `CCCAATAATCTTTTCACTTTGTGCTAG`, the log fluorescence was 1.43 z-score.
With `TTAGGTTTCCGTCTCCTTTAGTGCTAG` the log fluorescence was 1.28 z-score.
The log fluorescence of `TCACCTCTAGGTTCTCTGACTGTGCTA` is reported as -0.304 z-score.
With `TCAGCTCTGTGCATAGGACTGTGCTAG` the log fluorescence was -0.341 z-score.
The log fluorescence of `GACGGTTTCGGGTTTCGGGATGTGCTA` is reported as 8.33 z-score.

Set 4
Target: Sal-like protein 4, full length isoform B (SALL4, Homo sapiens, UniProt Q9UJQ4-2, residues 1-616)
Method: universal PBM
Molecule type: double-stranded DNA, one strand shown
Medium: in vitro
Concentration: not given
Notes: 8-mer, flanks averaged, mean of replicates
Direction: higher = stronger binding
Residues (chain): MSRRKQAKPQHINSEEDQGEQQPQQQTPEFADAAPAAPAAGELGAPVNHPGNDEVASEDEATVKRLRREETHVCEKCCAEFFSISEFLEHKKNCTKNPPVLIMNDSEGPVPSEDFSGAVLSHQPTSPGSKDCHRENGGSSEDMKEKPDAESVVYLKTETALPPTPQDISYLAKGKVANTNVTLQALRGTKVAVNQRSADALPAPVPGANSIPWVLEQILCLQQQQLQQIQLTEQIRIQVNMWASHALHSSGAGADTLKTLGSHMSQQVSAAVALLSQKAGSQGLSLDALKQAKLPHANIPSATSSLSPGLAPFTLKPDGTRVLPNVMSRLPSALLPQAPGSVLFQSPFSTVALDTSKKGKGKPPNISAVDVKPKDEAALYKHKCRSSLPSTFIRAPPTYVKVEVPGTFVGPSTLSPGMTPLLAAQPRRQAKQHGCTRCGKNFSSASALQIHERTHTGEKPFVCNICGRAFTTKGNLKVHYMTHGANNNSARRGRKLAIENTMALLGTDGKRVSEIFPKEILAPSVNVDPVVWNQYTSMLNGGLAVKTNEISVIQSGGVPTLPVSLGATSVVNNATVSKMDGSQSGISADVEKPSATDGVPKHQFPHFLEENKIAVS
The E-score of `AAACTCTC` is reported as -0.0485.
`CTCGGGCC` has an E-score of -0.307.
For `AACCAGCG`, the E-score was -0.172.
With `CTTGCCAC` the E-score was 0.0241.
The E-score of `ACACTGCG` is reported as -0.191.
`ACAGAACG` has an E-score of -0.0401.
`AGGGCCAG` has an E-score of -0.245.
`GGGCTACA` has an E-score of -0.0898.
`GACCAATC` gave an E-score of -0.0843.
For `CTAAGTAA`, the E-score was 0.147.
The E-score of `AGTAGACC` is reported as -0.0758.
`GCTCTCAC` has an E-score of -0.25.
`CAAGATTA` has an E-score of 0.117.
For `CTAACATC`, the E-score was 0.0312.
`CATGACGA` gave an E-score of -0.115.
For `ATAAGCAA`, the E-score was 0.256.
The E-score of `AGTTCACG` is reported as -0.0574.
The E-score of `CCCGTAAC` is reported as -0.105.
With `GAAGGTCA` the E-score was -0.0284.

Set 5
Target: Ras GTPase-activating protein-binding protein 1, full length (G3BP1, Homo sapiens, UniProt Q13283)
UniProt Q13283, sequence (whole entry, looked up): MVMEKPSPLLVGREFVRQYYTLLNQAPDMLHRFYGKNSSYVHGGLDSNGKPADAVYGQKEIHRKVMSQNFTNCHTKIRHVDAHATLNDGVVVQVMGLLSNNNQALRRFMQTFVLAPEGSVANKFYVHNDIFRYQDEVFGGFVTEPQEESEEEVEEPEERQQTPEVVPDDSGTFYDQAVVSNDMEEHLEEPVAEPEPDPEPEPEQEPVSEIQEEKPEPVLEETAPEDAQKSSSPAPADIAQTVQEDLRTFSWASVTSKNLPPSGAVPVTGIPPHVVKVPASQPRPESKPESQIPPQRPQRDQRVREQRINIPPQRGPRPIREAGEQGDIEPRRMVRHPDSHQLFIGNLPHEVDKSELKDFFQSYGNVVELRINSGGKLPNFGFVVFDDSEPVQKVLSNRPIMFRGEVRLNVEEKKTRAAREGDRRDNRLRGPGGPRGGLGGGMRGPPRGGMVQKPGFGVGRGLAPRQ
Method: RNA Bind-n-Seq
Molecule type: RNA
Medium: in vitro
Concentration: 200 nM
Notes: whole 134-nt RNA, ends assumed
With: 150 mM KCl
Relative to: input library
Direction: higher = stronger binding
Constant ends, left off below: GGGAGUUCUACAGUCCGACGAUC … UGGAAUUCUCGGGUGUCAAGG
The log2 enrichment of `CAGAACGAUCGAUACAGAAACCACGCUGCCGCCACCACACCAUCACCAUCGACAGAACAGUCCUUAAUCCAGAAACCUGAAAUGAAGGAA` is reported as 0.697.
For `GAACUUUAGAGGAGGAUCUGAUGGAUAUGGCAGUGGACGUGGAUUUGGGGAUGGCUAUAAUGGGUAUGGAGGAGGACCUGGAGGUGGCAA`, the log2 enrichment was 0.473.
`UGGCCCUGGUGGCAUGCGGGGAGGAAGAGGUGGCCUCAUGGAUCGUGGUGGGCCCGGUGGAAUGUUCAGAGGUGGCCGUGGUGGAGACAG` gave a log2 enrichment of 0.52.
The log2 enrichment of `GUCCUGUGCUACACAUCGUAUGUACCGAAUCGGGGUUUUUUUGGGGAGGGGUUUGGGGAAAGUAUUAUGUUACGCCGUUCGGAUCUGCAC` is reported as 0.24.
With `GUCCUGUGCUACACAUCGUAUGUACCGAAUCGGGGAGGGGAAAAAAAGGGGAAAGGGGAAAGUAUUAUGUUACGCCGUUCGGAUCUGCAC` the log2 enrichment was 0.675.
`CAAGUCCUGUGCUACACAUCGUAUGUACCGAAUCGUGUGUGUGUGUGUGUGUGUGUAAAGUAUUAUGUUACGCCGUUCGGAUCUGCACUU` has a log2 enrichment of 0.403.
With `UCCUCAAGUCCUGUGCUACACAUCGUAUGUACCGAAUCGGCGGGCGGCGGGAAAGUAUUAUGUUACGCCGUUCGGAUCUGCACUUCCAGC` the log2 enrichment was -0.323.
With `CUCAAGUCCUGUGCUACACAUCGUAUGUACCGAAUCGGGAAAGGGUGGGUGGGAAAGUAUUAUGUUACGCCGUUCGGAUCUGCACUUCCA` the log2 enrichment was 1.13.
For `UGGCCUUGGUGGCAUGCGGGGAGGAAGAGGUGGCCUCAUGGAUCGUGGUGGUCCCGGUGGAAUGUUCAGAGGUGGCCGUGGUGGAGACAG`, the log2 enrichment was 0.722.
`CCUGUGCUACACAUCGUAUGUACCGAAUCGGGUUUUUUUGGGUUUUUUUGGUUUUUUUGGAAAGUAUUAUGUUACGCCGUUCGGAUCUGC` gave a log2 enrichment of -0.731.

A few entries again (set 4):
With `GAAGGTCA` the E-score was -0.0284.
The E-score of `AGTAGACC` is reported as -0.0758.
The E-score of `ACACTGCG` is reported as -0.191.
`GCTCTCAC` has an E-score of -0.25.
`CTCGGGCC` has an E-score of -0.307.
`GACCAATC` gave an E-score of -0.0843.
`CATGACGA` gave an E-score of -0.115.
`GGGCTACA` has an E-score of -0.0898.
For `CTAAGTAA`, the E-score was 0.147.
The E-score of `AAACTCTC` is reported as -0.0485.
`AGGGCCAG` has an E-score of -0.245.
With `CTTGCCAC` the E-score was 0.0241.
